Published values pooled from the literature.
Lines come from different studies, so protocols differ. ± gives the spread as reported.

With N=C(N)NCCC[C@H](NC(=O)CNC(=O)[C@@H](N)Cc1ccc(O)cc1)C(=O)N[C@@H](CCCCN)C(=O)N[C@@H](CCCCN)C(=O)N[C@@H](CCCNC(=N)N)C(=O)N[C@@H](CCCNC(=N)N)C(=O)N[C@@H](CCC(N)=O)C(=O)N[C@@H](CCCNC(=N)N)C(=O)N[C@@H](CCCNC(=N)N)C(=O)N[C@@H](CCCNC(=N)N)C(=O)N[C@@H](CS)C(N)=O the EC50 was greater than 100000 nM (human red blood cells; pH 5.5; relative to: Triton X-100).
O=C(C[Se]C(=O)C12CC3CC(CC(C3)C1)C2)Nc1cccc(C(F)(F)F)c1 gave a CC50 of 28.6 µM (NCI60 melanoma subpanel; cytotoxicity, inhibitor; five-dose).
Cc1cc(Oc2nc(N3CC[C@@H](c4ccncc4)C3)ncc2F)[nH]n1 gave an IC50 of 25.7 µM (blood cancer cell lines; cell proliferation; average over lines).
O=C(C[Se]C(=O)c1ccccc1)Nc1cccc(C(F)(F)F)c1 gave a CC50 of 22.9 µM (NCI60 melanoma subpanel; cytotoxicity, inhibitor; five-dose).
NC(=O)N/N=C/c1ccc(OCc2cccc(F)c2)cc1: “catalase activity (OD450)” 0.045 a.u. (IMR-32; 200 µg/mL, 24 h; higher = more activity).
The selectivity ratio of CSCC[C@H](NC(=O)[C@@H](NC(=O)[C@H](CCC(N)=O)NC(=O)[C@H](CO)NC(=O)[C@@H](N)C(C)C)[C@@H](C)O)C(=O)N[C@@H](CCCNC(=N)N)C(=O)N[C@@H](CCC(N)=O)C(=O)N[C@H](C(=O)N[C@@H](C)C(=O)N[C@H](C(=O)N1CCC[C@H]1C(=O)N[C@@H](CC(C)C)C(=O)N[C@@H](CC(C)C)C(=O)N[C@@H](Cc1c[nH]c2ccccc12)C(=O)N[C@@H](Cc1ccccc1)C(=O)N[C@@H](Cc1c[nH]c2ccccc12)C(=O)N[C@H](C(=O)NCC(=O)N[C@@H](CO)C(=O)N[C@@H](CC(C)C)C(=O)NCCOCCOCCOCCOCCOCCOCCOCCOCCOCCOCCOCCOCCC(=O)N[C@@H](CS)C(N)=O)[C@@H](C)O)C(C)C)[C@@H](C)O is reported as 1.5 ± 1.1 (MCF7 breast cancer; cell binding, phage binding, measured: output/input phage; 10 min, 37 °C; relative to: control phage).
CC(C)C[C@@H](/C=C/[C@H](Cc1ccccc1)C(=O)N1CCC[C@H]1C(=O)N[C@H](C(=O)N[C@@H](CCCNC(=O)OCc1ccccc1)C(=O)NC1CC(C)(C)N([O])C(C)(C)C1)C(C)C)NC(=O)OC(C)(C)C has an EC50 of 86 nM (BJeLR; protection from ferroptosis, PrestoBlue; 24 h, with: erastin 10 µM).
CC(C)(C)C(=O)OCOP(=O)(OCOC(=O)C(C)(C)C)C1CCCN(O)C1=O (stereo not drawn) has a log GI50 of -6.49 log M (CAKI-1).
The selectivity ratio of CC(=O)NCSC[C@H](NC(=O)[C@@H]1CCCN1C(=O)[C@H](C)NC(=O)[C@@H](NC(=O)CNC(=O)[C@@H](NC(=O)[C@H](Cc1c[nH]c2ccccc12)NC(=O)[C@H](C)NC(=O)CNC(=O)[C@H](CO)NC(=O)[C@H](C)NC(=O)[C@@H]1CCCN1C(=O)[C@H](Cc1c[nH]c2ccccc12)NC(=O)[C@H](C)NC(=O)[C@H](C)NC(=O)[C@@H](N)Cc1ccc(O)cc1)[C@@H](C)O)[C@@H](C)O)C(=O)N[C@@H](CO)C(=O)N[C@@H](C)C(=O)NCC(=O)N[C@H](C(=O)NCCOCCOCCOCCOCCOCCOCCOCCOCCOCCOCCOCCOCCC(=O)N[C@@H](CS)C(N)=O)[C@@H](C)O is reported as 3.4 ± 2 (HCC461; phage binding; relative to: targeting over control phage).

Repeated from above:
CC(C)(C)C(=O)OCOP(=O)(OCOC(=O)C(C)(C)C)C1CCCN(O)C1=O (stereo not drawn) has a log GI50 of -6.49 log M (CAKI-1).
